Assay results collected from several papers.
Protocols differ between the studies behind these lines. Several values in a cell are separate wells, animals, samples, runs or records. Numbers after ± are the reported error.
UCHL1: Ubiquitin carboxyl-terminal hydrolase isozyme L1 (UCHL1, Homo sapiens, UniProt P09936)
TOP2A: DNA topoisomerase 2-alpha (TOP2A, Homo sapiens, UniProt P11388)
ADRA2C: Alpha-2C adrenergic receptor (ADRA2C, Homo sapiens, UniProt P18825)
GUK1: GUK1 (Homo sapiens, UniProt Q16774)
Voltage-dependent P/Q-type calcium channel subunit alpha-1A: Voltage-dependent P/Q-type calcium channel subunit alpha-1A (Homo sapiens, UniProt O00555)
T1: G-quadruplex DNA (Homo sapiens); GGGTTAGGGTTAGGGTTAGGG

SMILES	target or system	assay	test system	setting	scale	quantity	value
Cn1cc(-c2ccc(-c3cncc(Cl)c3N3CCC4(CCNC4=O)CC3)cc2)cn1	COLO 205	gene expression, microarray, measured: NFE2L2 mRNA		concentration not given, 2 h	relative to: untreated cells	log2 fold change	2.1
CC[C@@H]1[C@H](F)C(=O)N[C@@H]1COc1nccc2cc(C(N)=O)c(OC)cc12	PTK2 (Homo sapiens, UniProt Q05397)	ATP probe binding, KiNativ profiling, measured: Lys1 probe site	THP-1 cell lysate	0.04 mM		inhibition	-3.4%
Cc1cc(CN(C(=O)CCl)c2cn(C)nn2)ccc1Cl	UCHL1	covalent, intact protein LC-MS		12.5 µM		labelling	21.8%
Nc1ncnc2c1ncn2[C@@H]1O[C@H](COP(=O)(O)CP(=O)(O)OP(=O)(O)O)[C@@H](O)[C@H]1O	P2X purinoceptor 1 (P2RX1, Homo sapiens, UniProt P51575, E122A)	saturation binding	HEK293	13 nM		specific binding	137 CCPM and 124 CCPM and 163 CCPM
O=C(O)c1ccc(O)cc1	BEST1 (Homo sapiens, UniProt O76090)	whole-cell patch clamp	HEK293 transiently expressing channel	concentration not given, membrane potential -20 mV		current density	-9.14 pA/pF and -5.91 pA/pF and -7.72 pA/pF and -6.69 pA/pF and -8.7 pA/pF and -5.33 pA/pF and -4.38 pA/pF
O=C(COP(=O)(O)O)[C@@H](O)[C@H](O)[C@H](O)COP(=O)(O)O	Phosphoglycerate mutase 1 (Homo sapiens, UniProt P18669)	thermal proteome profiling, measured: PGAM1	HepG2 cell lysate	concentration not given, 57 over 37 °C, mean	relative to: compound over control	thermal stability ratio	1.94
OC[C@H]1OC(O)[C@H](O)[C@@H](O)[C@@H]1O (some centres unmarked)	Hexokinase-3 (HK3, Homo sapiens, UniProt P52790, E254A/R267A)	substrate inhibition		mutant E254A/R267A, complete substrate inhibition model, added: ATP 20 mM		kcat	54 ± 3 s⁻¹
CN(C)CCCCCN(C)Cc1cc2ccccc2o1	Trypanosoma cruzi	reporter translation, Renilla luciferase mRNA translation	cell-free extract	40 µM	relative to: DMSO	inhibition	8.1%
Cc1ccc(NC(=O)C(C#N)=Cc2cccc(F)c2)cc1	UCHL1	covalent, intact protein LC-MS		12.5 µM		labelling	16.7%
CCCCCCNc1nc(NC2CCN(C)CC2)c2cc(OC)c(OC)cc2n1	Toxoplasma gondii	parasite growth, luciferase reporter	HFF, tachyzoite	72 h		EC90	2.84 µM
N#CC(=Cc1ccccc1Cl)C(=O)Nc1ccc2c(c1)OCCO2	UCHL1	covalent, intact protein LC-MS		12.5 µM		labelling	34.4%
O=c1nc(SCc2cc(F)cc(C(F)(F)F)c2)nc(SCc2csc3ccc(Cl)cc23)[nH]1	TOP2A	decatenation		0.49 µM, replicate 2		decatenated DNA	0%
Cc1ccc(C2CC(c3cccs3)=NN2C(=O)CCl)cc1 (centres unmarked)	UCHL1	covalent, intact protein LC-MS		12.5 µM		labelling	29.8%
CN(C)CCCNc1nc(-c2cccc(-c3nc(NCCCN(C)C)c4ccccc4n3)n2)nc2ccccc12	T1, G-quadruplex DNA (Homo sapiens)	FRET melting		1 µM, pH 7.2, KCl 10 mM		ΔTm	> 15 °C
COc1ccc(C)cc1CN1CCC(c2cc3ncccc3cn2)CC1	Catenin beta-1, residues 141-305 (CTNNB1, Homo sapiens, UniProt P35222)	ITC		concentration not given, 25 °C		binding stoichiometry	1.33
C1=C/COCc2cc(ccc2OCCN2CCCC2)Nc2nccc(n2)-c2cccc(c2)COC/1	EGFR (Homo sapiens, UniProt P00533)			concentration not given		percent of control	75%
CO[C@H]1O[C@H](COS(=O)(=O)O)[C@@H](O[C@@H]2O[C@@H](C(=O)O)[C@@H](O[C@H]3O[C@H](COS(=O)(=O)O)[C@@H](O[C@@H]4O[C@H](C(=O)O)[C@@H](O[C@H]5O[C@H](COS(=O)(=O)O)[C@@H](O)[C@H](O)[C@H]5NS(=O)(=O)O)[C@H](O)[C@H]4O)[C@H](OS(=O)(=O)O)[C@H]3NS(=O)(=O)O)[C@H](O)[C@H]2OS(=O)(=O)O)[C@H](O)[C@H]1NS(=O)(=O)O	Beta-2-glycoprotein 1, domain V (APOH, Homo sapiens, UniProt P02749, V266L)	isothermal titration calorimetry		298 K, added: 100 mM NaCl		association constant	68100 ± 9340 M⁻¹
Cc1cc(CN)cc(C)c1NC(=O)c1ccc(-c2cc(Cl)ccc2Cl)o1	Toxoplasma gondii	parasite growth, luciferase reporter	HFF, tachyzoite	72 h		EC90	13000 µM
COc1ccc(-n2nc(C(=O)NC(=O)OCc3cc(C(=O)O)ccc3OP(=O)(O)O)c3c2C(=O)N(c2ccc(N4CCCCC4=O)cc2)CC3)cc1	Alkaline phosphatase, placental type (Homo sapiens, UniProt P05187)	substrate		100 µM, pH 7.6, 37 °C		drug formation rate	1.65 pmol/min
O[C@@H](COc1ccc2cc(Br)ccc2c1)Cn1ccnc1	Trypanosoma cruzi	reporter translation, Renilla luciferase mRNA translation	cell-free extract	40 µM	relative to: DMSO	inhibition	0.37%
Cc1cc(Oc2ncccc2CN2CCN(c3ccc(Br)cc3)CC2)ccc1-c1c(C)c(=O)[nH]c(=O)n1C	ADRA2C	binding, radioligand binding		added: [3H]rauwolscine	relative to: Ki alpha2A over Ki alpha2C	selectivity ratio	11
CC1CC1(C(=O)O)C(=O)NCc1cc(Cl)c2c(c1)OCCCO2 (centres unmarked)	malate dehydrogenase	enzyme activity, inhibitor		200 µM, pH 7.0, 1% DMSO, aggregation counter-screen		remaining activity	88%
C#CCCC1(CC[C@H](NC(=O)NCCCCCCNC(=O)NCCNC(=O)COc2cccc([C@@H](CCc3ccc(OC)c(OC)c3)OC(=O)[C@@H]3CCCCN3C(=O)C(=O)C(C)(C)CC)c2)C(N)=O)N=N1.O=C(O)C(F)(F)F	FKBP1A (Homo sapiens, UniProt P62942)	photoaffinity labeling, in-gel fluorescence, measured: Alexa Fluor 647 click label		0.4 µM, UV irradiation 365 nm	higher = more labeling	probe labeling fluorescence	16900 a.u.
COc1cc(Nc2ncc3c(n2)-c2ccc(Cl)cc2C(c2c(F)cccc2OC)=NC3)ccc1C(=O)O	IKBKB	kinase activity		1 µM		remaining activity	105%
O=C(O)c1ccccc1S(=O)(=O)NCc1ccccc1C1CCC1	malate dehydrogenase	enzyme activity, inhibitor		200 µM, pH 7.0, 1% DMSO, aggregation counter-screen		remaining activity	86%

SMILES	target or system	assay	test system	setting	scale	quantity	value
CCCC[C@H](NC(=O)[C@H](C)c1c(C)[nH]c2ccc(O)cc12)c1ncc(-c2cc3ccccc3nc2OC)[nH]1	PTGER1 (Homo sapiens, UniProt P34995)			10 µM		effect	77%
CCN1CCC[C@H]1CNC(=O)c1c(O)c(Cl)cc(Cl)c1OC	G-protein coupled receptor family C group 6 member A (GPRC6A, Homo sapiens, UniProt Q5T6X5)	β-arrestin recruitment, TANGO luminescence, measured: GPRC6A		concentration not given	relative to: basal luminescence	log2 fold change	-0.2
CCCCCCCCC(=O)c1cc(O)c(O)c(O)c1	Nuclear receptor subfamily 1 group I member 3 (Homo sapiens, UniProt Q14994)	reporter gene, Gal4 hybrid reporter		10 µM	relative to: vehicle	activation	2.56 fold
NCCCS(=O)(=O)O	SLC6A6 (Homo sapiens, UniProt P31641, Y138A)	binding, microscale thermophoresis		35.1 nM, fitted curve	higher = more binding	fraction bound	0.000318
CC(C)C[C@H](NC(=O)C[C@H](O)[C@H](CC(C)C)NC(=O)[C@H](Cc1c[nH]cn1)NC(=O)CNC(=O)[C@@H](NC(=O)[C@H](C)NC(=O)[C@H](Cc1c[nH]c2ccccc12)NC(=O)[C@H](CCC(N)=O)NC(=O)[C@@H](Cc1ccccc1)NC(=O)COCCOCCNC(=O)CCC(C(=O)O)N1CCN(CC(=O)O)CCN(CC(=O)O)CCN(CC(=O)O)CC1)C(C)C)C(N)=O (some centres unmarked) [lutetium-177 labelled]			female BALB/c nu/nu mice, liver	intravenous, 100 pmol, 4 h, added: PA 300 µg		tissue uptake	0.13 ± 0.02 %ID/g
CC[C@H]1[C@@H](O)[C@@H]2[C@H](CC[C@]3(C)[C@@H]([C@H](C)CCNC(=O)NS(=O)(=O)c4ccc(C(C)(C)C)cc4)CC[C@@H]23)[C@@]2(C)CC[C@@H](O)C[C@@H]12	Cytochrome P450 3A4 (CYP3A4, Homo sapiens, UniProt P08684)		human, plasma	10 mg, day 1, compound alone		half-life mean	12.2 h
C=CC(=O)N1CCC(COCC(=O)N2CCN(c3nc(-c4cnc(N)nc4C(F)F)nc(N4CCOC[C@@H]4C)n3)CC2)CC1	PIK3CA (Homo sapiens, UniProt P42336)	KINOMEscan		1 µM		remaining binding	0%
Nc1ncnc2c1ncn2[C@@H]1O[C@H](COP(=O)(O)OP(=O)(O)O)[C@@H](O)[C@H]1O	GUK1	binding, isothermal titration calorimetry		molar ratio 2.388, fitted curve		ΔH	-0.265 kcal/mol
CC/C=C(\C)C=O	Uncharacterized protein PH0856 (Pyrococcus horikoshii, UniProt O58586)	substrate, biocatalytic transformation		pH 6.2, 30 °C, anaerobic, added: NADPH		conversion	98%
CCS(=O)(=O)c1nc2ccc(NC(=O)Nc3cccc(C#N)c3)cc2s1	UCHL1	covalent, intact protein LC-MS		12.5 µM		labelling	12.8%
O=C(O)C(O)C(O)C(=O)O.c1cnc2cc3c(cc2n1)[C@@H]1CNC[C@H]3C1	Voltage-dependent P/Q-type calcium channel subunit alpha-1A	ion current, antagonist, automated patch clamp				IC30	> 30 µM
Nc1nc(CCc2ccc(Cl)cc2)nn1S(=O)(=O)c1ccc2ncsc2c1	Lysophospholipase-like protein 1 (Mus musculus, UniProt Q3UFF7)	enzyme activity, activator, gel-based ABPP	purified protein	concentration not given, added: FP-rhodamine	relative to: DMSO	probe labeling increase	2.2 fold
O=c1nc(SCc2ccc(C(F)(F)F)cc2)nc(SCc2csc3ccc(Cl)cc23)[nH]1	TOP2A	DNA relaxation		7.8 µM		mean relaxed DNA	48.1%
CCc1cc(SC#N)cc(CC)c1NC(=O)CCl	UCHL1	covalent, intact protein LC-MS		12.5 µM		labelling	7.89%
Cc1cc(Nc2ncnc3ccc(NC4=NC(C)(C)CO4)cc23)ccc1Oc1ccn2ncnc2c1	Cytochrome P450 2C8 (CYP2C8, Homo sapiens, UniProt P10632)		human, plasma	oral, 300 mg single dose, day 1, arithmetic mean		Cmax	442 ng/mL
CC(=O)Nc1ccc(O)cc1	Voltage-dependent P/Q-type calcium channel subunit alpha-1A	ion current, antagonist	HEK293	10 µM		inhibition	22%
CC(C)CCC[C@@H](C)[C@H]1CC[C@@H]2[C@@H]1CC[C@H]1[C@H]2CC=C2C[C@@H](O)CC[C@@H]21	hh, HhC autoprocessing domain (Drosophila melanogaster, UniProt Q02936)	substrate, FRET reporter autoprocessing		C-H-Y reporter substrate		Km	4.7 µM
N#CC(=Cc1c(F)c(F)c(F)c(F)c1F)C(=O)NC1CCCCC1	UCHL1	covalent, intact protein LC-MS		12.5 µM		labelling	35.3%
Cc1cc(Oc2ncccc2CN2CCN(c3ccc([N+](=O)[O-])cc3C(F)(F)F)CC2)ccc1-c1c(C)c(=O)[nH]c(=O)n1C	ADRA2C	binding, radioligand binding		added: [3H]rauwolscine	relative to: Ki alpha2B over Ki alpha2C	selectivity ratio	3
[Cl-].[Na+]	GUK1	enzyme activity, NADH-coupled		30 mM		reaction velocity	0.0301 µM/s and 0.0186 µM/s and 0.0202 µM/s
Cc1cc(Oc2ncccc2CN2CCN(c3ccccc3C#N)CC2)ccc1-c1c(C)c(=O)[nH]c(=O)n1C	ADRA2C	binding, radioligand binding		added: [3H]rauwolscine	relative to: Ki alpha2A over Ki alpha2C	selectivity ratio	2
O=c1ccc2c(OCCCCOc3ccc(O)cc3)c3ccoc3cc2o1	Kcna3 (Mus musculus, UniProt P16390)	potassium current, blocker	L929			Hill coefficient	1.6
Cc1ccc2c(c1)NC(=O)C2CC(=O)NCCNC(=O)CCn1c(=O)[nH]c(=O)c2ccccc21 (centres unmarked)	TNKS (Homo sapiens, UniProt O95271)	enzyme activity, inhibitor				ligand efficiency	0.41
O=c1nc(SCc2cc(F)cc(C(F)(F)F)c2)nc(SCc2ccc3nc(Cl)ccc3c2)[nH]1	TOP2B (Homo sapiens, UniProt Q02880)	decatenation		125 µM, replicate 2		decatenated DNA	1.19%
COc1cccc2c(Nc3ccc4[nH]c(C(=O)N/N=C/c5ccc(SC)cc5)cc4c3)cc(C)nc12	THRA (Homo sapiens, UniProt P10827)	reporter gene, Gal4 hybrid reporter		3 µM	relative to: vehicle	activation	0.91 fold

For quick reference, copied from above:
SMILES	target or system	assay	test system	setting	scale	quantity	value
CC(C)CCC[C@@H](C)[C@H]1CC[C@@H]2[C@@H]1CC[C@H]1[C@H]2CC=C2C[C@@H](O)CC[C@@H]21	hh, HhC autoprocessing domain (Drosophila melanogaster, UniProt Q02936)	substrate, FRET reporter autoprocessing		C-H-Y reporter substrate		Km	4.7 µM
CCN1CCC[C@H]1CNC(=O)c1c(O)c(Cl)cc(Cl)c1OC	G-protein coupled receptor family C group 6 member A (GPRC6A, Homo sapiens, UniProt Q5T6X5)	β-arrestin recruitment, TANGO luminescence, measured: GPRC6A		concentration not given	relative to: basal luminescence	log2 fold change	-0.2
CCCCCCNc1nc(NC2CCN(C)CC2)c2cc(OC)c(OC)cc2n1	Toxoplasma gondii	parasite growth, luciferase reporter	HFF, tachyzoite	72 h		EC90	2.84 µM
Nc1ncnc2c1ncn2[C@@H]1O[C@H](COP(=O)(O)OP(=O)(O)O)[C@@H](O)[C@H]1O	GUK1	binding, isothermal titration calorimetry		molar ratio 2.388, fitted curve		ΔH	-0.265 kcal/mol
Cc1cc(Oc2ncccc2CN2CCN(c3ccc(Br)cc3)CC2)ccc1-c1c(C)c(=O)[nH]c(=O)n1C	ADRA2C	binding, radioligand binding		added: [3H]rauwolscine	relative to: Ki alpha2A over Ki alpha2C	selectivity ratio	11
